Results collected from several papers.
Each numbered part is a random draw from the data of one study; scales do not carry over between parts. Changes are numbered by the printed parent chain.
Sequence of UniProt P48729 (whole entry, looked up): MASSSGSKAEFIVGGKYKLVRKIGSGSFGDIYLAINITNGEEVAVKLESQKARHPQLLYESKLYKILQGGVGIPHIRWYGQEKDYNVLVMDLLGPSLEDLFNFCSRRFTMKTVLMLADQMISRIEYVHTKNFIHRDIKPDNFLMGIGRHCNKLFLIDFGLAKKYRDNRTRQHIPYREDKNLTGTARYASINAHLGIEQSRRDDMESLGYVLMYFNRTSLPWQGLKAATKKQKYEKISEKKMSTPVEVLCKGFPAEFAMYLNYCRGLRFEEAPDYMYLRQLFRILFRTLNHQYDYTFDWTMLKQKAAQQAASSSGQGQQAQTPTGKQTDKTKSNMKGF

Study 1
Target: Interferon regulatory factor 7, full length, phosphomimetic (IRF7, Homo sapiens, UniProt Q92985, residues 1-503, S101K/S471D/S472D/S475D/S476D/S477D/S483D/S484D/S487D)
Sequence of UniProt Q92985 (whole entry, unmodified, looked up): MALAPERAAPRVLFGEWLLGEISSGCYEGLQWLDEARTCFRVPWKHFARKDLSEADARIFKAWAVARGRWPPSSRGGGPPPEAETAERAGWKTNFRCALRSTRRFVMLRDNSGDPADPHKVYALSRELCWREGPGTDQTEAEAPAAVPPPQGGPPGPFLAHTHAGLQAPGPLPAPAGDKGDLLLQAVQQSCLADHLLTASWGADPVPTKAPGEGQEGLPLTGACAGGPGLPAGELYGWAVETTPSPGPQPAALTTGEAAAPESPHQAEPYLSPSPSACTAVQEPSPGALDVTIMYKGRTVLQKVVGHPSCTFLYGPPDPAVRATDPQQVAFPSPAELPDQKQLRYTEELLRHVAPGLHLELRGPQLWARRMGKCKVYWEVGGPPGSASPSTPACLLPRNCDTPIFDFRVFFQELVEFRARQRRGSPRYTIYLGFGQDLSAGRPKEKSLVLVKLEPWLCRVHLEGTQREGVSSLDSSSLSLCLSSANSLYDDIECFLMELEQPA
Method: protein-binding microarray
Molecule type: double-stranded DNA, one strand shown
Matrix: in vitro
Concentration: 250 nM
Notes: 60-bp whole probe
With: salmon DNA 0.4 mg/ml
Baseline: random background probes
Direction: higher = stronger binding
Constant ends, left off below: GCCTAGCAC … GTCTTGATTCGCTTGACGCTGCTG
Strand | log fluorescence [z-score]
TTAGGACTGGACACTTGGTTAGTGCTA | -0.718
TTAGGTATCGGGTATCGATTAGTGCTA | 1.56
GACGGTTTCCTACTGCGGACGTGCTAG | 1.76
GACGATCTCTGTCTCGAGACGTGCTAG | 0.0595
GACGATATCTGTCTCGAGACGTGCTAG | 0.204
TTAGGTATCGGTCTCGGTAAGTGCTAG | 1.11
AGTCGTGAGCCGCACAGTGGGTGCTAG | -0.964
TTCGGACTGGGTCTCGGTTAGTGCTAG | 0.559

Study 2
Target: Prothrombin, mature alpha-thrombin (F2, Homo sapiens, UniProt P00734)
Method: aptamer microarray, sandwich
Molecule type: DNA with 2'F-ANA
Matrix: in vitro
Concentration: 200 nM
Notes: whole 15-mer aptamer, many near background
With: Cy3 exosite-II aptamer, 400 nM
Direction: higher = stronger binding
Strand: GGTTGGTGTGGTTGG
Modification | mean fluorescence intensity
2'F-ANA at 2 7 11 14 15 | 176 a.u.
2'F-ANA at 1 4 8 10 | 88.2 a.u.
2'F-ANA at 2 3 7 8 9 13 14 | 425 a.u.
2'F-ANA at 1 3 4 7 12 15 | 484 a.u.
2'F-ANA at 2 4 5 7 10 12 13 14 15 | 45.5 a.u.
2'F-ANA at 1 2 3 5 6 8 10 12 13 15 | 117 a.u.
2'F-ANA at 1 2 4 6 8 10 12 13 14 | 48.6 a.u.
2'F-ANA at 1 2 3 4 5 6 11 14 15 | 66.3 a.u.

Study 3
Target: CCNE2, cyclin fold, Cln2 fusion (human)
Method: yeast growth competition, sequencing
Matrix: yeast
Notes: weak parent motif
Baseline: not given
Direction: higher = stronger binding
Starting sequence: RB1 docking peptide (human); PKPLKKLRFDIEG
Variant | normalised enrichment score
G13T | 0.258
P3K | 0.913
D10P | 0.212
I11R | -0.211
E12Q | 0.471
L7S | 0.73
K2P | 0.874
I11W | 0.324

Other studies, line by line
SMILES | target | assay | setting | how to read | endpoint | result
CN1CCN(c2ccc3nc(-c4c(N)c5c(F)cccc5[nH]c4=O)[nH]c3c2)CC1 | Casein kinase I isoform alpha (CSNK1A1, Homo sapiens, UniProt P48729) | enzyme activity, inhibitor | 0.5 µM | baseline: control | remaining activity | 95.1%

Excerpt of the above (study 2):
Modification | mean fluorescence intensity
2'F-ANA at 1 2 3 5 6 8 10 12 13 15 | 117 a.u.
2'F-ANA at 1 2 4 6 8 10 12 13 14 | 48.6 a.u.
2'F-ANA at 1 4 8 10 | 88.2 a.u.
2'F-ANA at 1 3 4 7 12 15 | 484 a.u.
